# Published values from different studies.
# Every numbered part comes from another study and shows a few of its results, in no order.
# UniProt P10721, sequence (whole entry, unmodified, looked up): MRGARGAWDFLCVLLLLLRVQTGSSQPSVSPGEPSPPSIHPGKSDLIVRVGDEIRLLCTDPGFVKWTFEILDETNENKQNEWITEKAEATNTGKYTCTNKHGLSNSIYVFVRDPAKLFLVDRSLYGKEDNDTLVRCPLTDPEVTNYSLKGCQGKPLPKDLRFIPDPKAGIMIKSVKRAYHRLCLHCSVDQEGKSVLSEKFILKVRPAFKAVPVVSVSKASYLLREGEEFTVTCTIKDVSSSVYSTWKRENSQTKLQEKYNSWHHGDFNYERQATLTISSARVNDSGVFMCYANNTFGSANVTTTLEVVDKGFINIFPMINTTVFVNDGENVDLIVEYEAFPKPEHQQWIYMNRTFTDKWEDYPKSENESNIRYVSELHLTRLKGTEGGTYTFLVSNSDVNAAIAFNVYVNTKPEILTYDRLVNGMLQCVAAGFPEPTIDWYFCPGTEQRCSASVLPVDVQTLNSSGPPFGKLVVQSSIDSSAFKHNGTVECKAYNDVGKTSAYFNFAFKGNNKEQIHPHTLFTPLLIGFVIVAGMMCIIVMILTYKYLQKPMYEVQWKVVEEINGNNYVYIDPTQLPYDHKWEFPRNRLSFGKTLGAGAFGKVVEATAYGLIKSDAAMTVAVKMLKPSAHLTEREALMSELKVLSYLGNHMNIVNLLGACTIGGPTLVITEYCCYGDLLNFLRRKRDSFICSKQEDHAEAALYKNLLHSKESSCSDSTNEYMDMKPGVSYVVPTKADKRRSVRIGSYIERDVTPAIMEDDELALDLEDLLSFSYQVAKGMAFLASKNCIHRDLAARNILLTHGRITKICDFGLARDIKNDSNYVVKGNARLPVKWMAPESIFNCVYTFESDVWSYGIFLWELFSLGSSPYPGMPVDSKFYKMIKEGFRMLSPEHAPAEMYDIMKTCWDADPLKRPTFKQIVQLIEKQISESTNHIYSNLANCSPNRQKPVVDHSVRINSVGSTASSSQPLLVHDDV
# UniProt Q9NYL2, sequence (whole entry, looked up): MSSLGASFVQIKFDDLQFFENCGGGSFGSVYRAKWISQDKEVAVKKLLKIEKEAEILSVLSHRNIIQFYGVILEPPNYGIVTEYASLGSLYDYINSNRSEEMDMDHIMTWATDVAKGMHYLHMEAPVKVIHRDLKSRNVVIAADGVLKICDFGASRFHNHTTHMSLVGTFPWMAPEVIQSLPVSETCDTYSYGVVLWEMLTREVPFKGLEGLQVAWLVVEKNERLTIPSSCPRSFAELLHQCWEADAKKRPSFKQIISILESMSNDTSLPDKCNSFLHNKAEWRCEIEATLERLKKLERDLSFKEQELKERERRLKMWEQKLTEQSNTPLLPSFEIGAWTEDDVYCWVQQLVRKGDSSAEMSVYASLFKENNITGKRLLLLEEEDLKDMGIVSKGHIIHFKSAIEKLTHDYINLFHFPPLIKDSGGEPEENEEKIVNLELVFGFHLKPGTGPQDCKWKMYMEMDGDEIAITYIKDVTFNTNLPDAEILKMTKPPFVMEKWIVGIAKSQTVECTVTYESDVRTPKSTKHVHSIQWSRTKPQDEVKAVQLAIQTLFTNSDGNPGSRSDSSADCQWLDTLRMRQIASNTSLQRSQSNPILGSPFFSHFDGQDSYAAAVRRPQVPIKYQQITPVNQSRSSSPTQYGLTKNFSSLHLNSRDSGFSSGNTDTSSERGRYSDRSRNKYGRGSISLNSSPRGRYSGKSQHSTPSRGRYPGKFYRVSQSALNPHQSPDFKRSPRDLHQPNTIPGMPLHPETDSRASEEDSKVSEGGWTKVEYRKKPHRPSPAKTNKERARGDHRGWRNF
# UniProt P22607, sequence (whole entry, looked up): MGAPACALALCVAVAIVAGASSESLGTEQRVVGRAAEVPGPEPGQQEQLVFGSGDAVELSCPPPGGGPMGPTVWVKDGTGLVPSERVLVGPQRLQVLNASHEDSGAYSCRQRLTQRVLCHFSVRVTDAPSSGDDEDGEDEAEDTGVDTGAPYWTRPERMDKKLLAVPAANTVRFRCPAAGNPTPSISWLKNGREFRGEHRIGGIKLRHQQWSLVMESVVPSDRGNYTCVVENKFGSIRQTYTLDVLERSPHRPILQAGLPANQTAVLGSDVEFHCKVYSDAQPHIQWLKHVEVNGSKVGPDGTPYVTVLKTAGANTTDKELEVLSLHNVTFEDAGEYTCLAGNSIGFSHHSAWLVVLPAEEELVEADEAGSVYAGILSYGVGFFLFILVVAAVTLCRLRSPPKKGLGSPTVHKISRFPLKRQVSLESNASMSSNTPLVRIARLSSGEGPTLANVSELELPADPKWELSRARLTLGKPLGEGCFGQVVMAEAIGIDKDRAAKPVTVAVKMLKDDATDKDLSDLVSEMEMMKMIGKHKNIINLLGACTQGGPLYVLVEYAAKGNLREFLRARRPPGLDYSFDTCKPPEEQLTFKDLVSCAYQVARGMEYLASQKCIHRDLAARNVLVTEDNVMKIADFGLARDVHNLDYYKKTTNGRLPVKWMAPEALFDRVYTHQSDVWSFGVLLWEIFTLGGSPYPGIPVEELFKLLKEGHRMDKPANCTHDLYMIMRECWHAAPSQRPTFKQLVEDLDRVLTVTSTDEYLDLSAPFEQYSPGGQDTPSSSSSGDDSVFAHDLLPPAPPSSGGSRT
# UniProt P49674, sequence (whole entry, looked up): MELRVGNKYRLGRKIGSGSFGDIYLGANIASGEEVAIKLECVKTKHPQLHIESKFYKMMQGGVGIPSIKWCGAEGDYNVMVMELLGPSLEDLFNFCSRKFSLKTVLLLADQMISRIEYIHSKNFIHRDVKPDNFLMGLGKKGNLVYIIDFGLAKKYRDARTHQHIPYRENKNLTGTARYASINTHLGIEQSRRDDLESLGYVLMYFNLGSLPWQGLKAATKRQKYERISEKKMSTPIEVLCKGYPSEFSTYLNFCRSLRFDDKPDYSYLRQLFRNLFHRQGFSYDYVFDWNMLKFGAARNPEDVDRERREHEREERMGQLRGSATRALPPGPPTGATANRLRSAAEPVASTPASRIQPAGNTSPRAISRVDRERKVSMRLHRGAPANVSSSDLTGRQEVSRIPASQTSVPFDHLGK
# UniProt Q9UEE5, sequence (whole entry, looked up): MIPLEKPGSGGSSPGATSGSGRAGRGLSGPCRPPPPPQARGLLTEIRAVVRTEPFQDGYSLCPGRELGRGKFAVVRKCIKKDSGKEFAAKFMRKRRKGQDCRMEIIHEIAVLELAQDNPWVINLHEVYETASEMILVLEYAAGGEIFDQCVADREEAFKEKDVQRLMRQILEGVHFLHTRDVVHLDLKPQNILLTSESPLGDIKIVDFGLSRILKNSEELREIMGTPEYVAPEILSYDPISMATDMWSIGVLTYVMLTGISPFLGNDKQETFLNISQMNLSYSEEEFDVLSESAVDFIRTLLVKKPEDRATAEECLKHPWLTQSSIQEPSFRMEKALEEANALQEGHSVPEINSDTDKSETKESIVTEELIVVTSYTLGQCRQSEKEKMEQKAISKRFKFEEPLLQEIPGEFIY
# UniProt O75385, sequence (whole entry, looked up): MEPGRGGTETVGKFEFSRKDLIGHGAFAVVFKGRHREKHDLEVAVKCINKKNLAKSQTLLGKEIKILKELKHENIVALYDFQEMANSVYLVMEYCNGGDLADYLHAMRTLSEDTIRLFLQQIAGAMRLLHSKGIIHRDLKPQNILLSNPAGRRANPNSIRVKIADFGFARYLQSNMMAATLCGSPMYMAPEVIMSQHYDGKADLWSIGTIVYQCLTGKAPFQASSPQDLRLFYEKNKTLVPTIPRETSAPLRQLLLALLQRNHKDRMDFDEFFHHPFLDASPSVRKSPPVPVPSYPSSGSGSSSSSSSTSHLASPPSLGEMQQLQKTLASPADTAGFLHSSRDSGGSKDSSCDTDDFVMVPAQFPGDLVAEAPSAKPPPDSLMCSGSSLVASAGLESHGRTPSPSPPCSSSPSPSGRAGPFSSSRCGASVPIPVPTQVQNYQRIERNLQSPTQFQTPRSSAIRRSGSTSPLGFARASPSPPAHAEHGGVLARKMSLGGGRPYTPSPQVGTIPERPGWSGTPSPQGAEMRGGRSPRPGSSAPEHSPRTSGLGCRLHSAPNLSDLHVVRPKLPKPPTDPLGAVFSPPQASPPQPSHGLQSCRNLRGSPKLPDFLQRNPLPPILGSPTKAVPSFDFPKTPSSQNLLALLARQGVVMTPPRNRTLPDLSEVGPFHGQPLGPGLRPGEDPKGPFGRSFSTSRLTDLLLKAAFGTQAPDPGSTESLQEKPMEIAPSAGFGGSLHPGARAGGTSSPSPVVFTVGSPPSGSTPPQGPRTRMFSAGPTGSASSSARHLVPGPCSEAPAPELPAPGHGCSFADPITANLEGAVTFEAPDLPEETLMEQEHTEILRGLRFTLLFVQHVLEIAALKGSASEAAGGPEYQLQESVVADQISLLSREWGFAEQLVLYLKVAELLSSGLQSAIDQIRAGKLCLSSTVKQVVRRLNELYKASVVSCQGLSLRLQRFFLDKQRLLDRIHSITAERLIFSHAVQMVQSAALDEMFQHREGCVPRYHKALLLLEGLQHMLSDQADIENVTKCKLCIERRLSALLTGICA
# UniProt Q8IVW4, sequence (whole entry, looked up): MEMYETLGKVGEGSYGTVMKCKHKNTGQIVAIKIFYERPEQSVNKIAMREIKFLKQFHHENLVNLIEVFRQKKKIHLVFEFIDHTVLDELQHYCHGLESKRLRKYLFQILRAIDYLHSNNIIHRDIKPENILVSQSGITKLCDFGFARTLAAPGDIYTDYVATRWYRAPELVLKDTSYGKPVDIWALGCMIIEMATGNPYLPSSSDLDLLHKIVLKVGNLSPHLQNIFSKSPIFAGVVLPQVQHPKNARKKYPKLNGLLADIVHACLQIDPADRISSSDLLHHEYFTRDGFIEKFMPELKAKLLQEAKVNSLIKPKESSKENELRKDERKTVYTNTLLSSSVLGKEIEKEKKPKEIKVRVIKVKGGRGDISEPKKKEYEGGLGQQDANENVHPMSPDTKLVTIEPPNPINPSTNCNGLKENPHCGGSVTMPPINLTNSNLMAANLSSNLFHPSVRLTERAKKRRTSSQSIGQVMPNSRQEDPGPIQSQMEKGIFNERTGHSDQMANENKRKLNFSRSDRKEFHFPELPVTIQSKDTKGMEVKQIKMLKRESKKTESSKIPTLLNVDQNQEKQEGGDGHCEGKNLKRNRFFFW

# Set 1
# SMILES: CN([C@@H]1CCc2c(CC(=O)O)c3cc(S(C)(=O)=O)ccc3n2C1)S(=O)(=O)c1ccc(F)cc1
# Concentration: 1 µM
target,test,scale,remaining binding
"CAMK1G (Homo sapiens, UniProt Q96NX5)","cell-free assay, competition with immobilised ligand",,100%
"FGR (Homo sapiens, UniProt P09769)","cell-free assay, competition with immobilised ligand",,84%
"FGFR3 (Homo sapiens, UniProt P22607)","cell-free assay, competition with immobilised ligand",,100%
"CDKL3 (Homo sapiens, UniProt Q8IVW4)","cell-free assay, competition with immobilised ligand",,100%
"CDKL2 (Homo sapiens, UniProt Q92772)","cell-free assay, competition with immobilised ligand",,100%
"MAPK8 (Homo sapiens, UniProt P45983)","cell-free assay, competition with immobilised ligand",,90%
"eIF-2-alpha kinase GCN2, C-terminal kinase domain (EIF2AK4, Homo sapiens, UniProt Q9P2K8, S808G)","cell-free assay, competition with immobilised ligand",,71%
"MAP3K12 (Homo sapiens, UniProt Q12852)","cell-free assay, competition with immobilised ligand",,100%
"MAK (Homo sapiens, UniProt P20794)","cell-free assay, competition with immobilised ligand",,65%
"HIPK4 (Homo sapiens, UniProt Q8NE63)","cell-free assay, competition with immobilised ligand",,100%
"ULK1 (Homo sapiens, UniProt O75385)","cell-free assay, competition with immobilised ligand",,92%
"RIOK1 (Homo sapiens, UniProt Q9BRS2)","cell-free assay, competition with immobilised ligand",,100%
"MAP3K20 (Homo sapiens, UniProt Q9NYL2)","cell-free assay, competition with immobilised ligand",,80%
"Mast/stem cell growth factor receptor Kit, autoinhibited (KIT, Homo sapiens, UniProt P10721)","cell-free assay, competition with immobilised ligand",,89%
"Tyrosine-protein kinase ABL1, non-phosphorylated (ABL1, Homo sapiens, UniProt P00519, F317I)","binding, competition with immobilised ligand",,75%
"NTRK3 (Homo sapiens, UniProt Q16288)","cell-free assay, competition with immobilised ligand",,100%
"NUAK1 (Homo sapiens, UniProt O60285)","cell-free assay, competition with immobilised ligand",,100%
"CDC42BPG (Homo sapiens, UniProt Q6DT37)","binder, KINOMEscan competition binding",reference: DMSO,93%
"TLK2 (Homo sapiens, UniProt Q86UE8)","cell-free assay, competition with immobilised ligand",,100%
"KIT (Homo sapiens, UniProt P10721, V559D)","cell-free assay, competition with immobilised ligand",,92%
"STK17A (Homo sapiens, UniProt Q9UEE5)","cell-free assay, competition with immobilised ligand",,100%
"PIK3CA (Homo sapiens, UniProt P42336, I800L)","cell-free assay, competition with immobilised ligand",,72%

# Set 2
# Structure (SMILES): O=C1Cc2c([nH]c3ccc(Br)cc23)-c2ccccc2N1
# Effect on: enzyme activity
# Mode: inhibitor
# Concentration: 0.5 µM
# Reference: control
target,remaining activity [%]
"EPHA2 (Homo sapiens, UniProt P29317)",98.3
"PAK6 (Homo sapiens, UniProt Q9NQU5)",97.8
"CLK1 (Homo sapiens, UniProt P49759)",96.7
"SRPK1 (Homo sapiens, UniProt Q96SB4)",99.6
"CLK2 (Homo sapiens, UniProt P49760)",95.7
"SIK2 (Homo sapiens, UniProt Q9H0K1)",63.5
"IGF1R (Homo sapiens, UniProt P08069)",103
"JAK1 (Homo sapiens, UniProt P23458)",102
"CSNK1D (Homo sapiens, UniProt P48730)",104
"EPHA6 (Homo sapiens, UniProt Q9UF33)",93.7
"SGK2 (Homo sapiens, UniProt Q9HBY8)",98.9
"FLT1 (Homo sapiens, UniProt P17948)",78.9
"MAP3K20 (Homo sapiens, UniProt Q9NYL2)",88.5
"TYRO3 (Homo sapiens, UniProt Q06418)",97.7
"CSNK1E (Homo sapiens, UniProt P49674)",103
"CAMK1 (Homo sapiens, UniProt Q14012)",106
"CAMKK1 (Homo sapiens, UniProt Q8N5S9)",99.8
"TEC (Homo sapiens, UniProt P42680)",96.4
"MUSK (Homo sapiens, UniProt O15146)",87.6
"PAK1 (Homo sapiens, UniProt Q13153)",85
"PRKCQ (Homo sapiens, UniProt Q04759)",114

# Other studies, line by line
SMILES,tested on,test,test system,setting,endpoint,result
Cc1nc(C)c(C)nc1C,A-375,,,"100 µM, 60 h",viability,98.1%
O=C1CCC(N2Cc3cc(C4CCN(Cc5ccccc5)CC4)ccc3C2=O)C(=O)N1 (stereo not drawn),"KCNH2 (Homo sapiens, UniProt Q12809)","potassium current, inhibitor, manual patch clamp",HEK293 stably transfected with hERG,measured concentrations,IC50,8.96 µM
Nc1nc(O)c2ncn(COC(CO)CO)c2n1,HaCaT,,,"100 µM, 60 h",viability,135%
CN(C)CCN(Cc1ccccc1)c1ccccn1,HaCaT,,,"100 µM, 60 h",viability,141%
CC(=O)c1ccc(O)c(C(=O)O)c1,HaCaT,,,"100 µM, 60 h",viability,116%

# Excerpt of the above (set 2):
target,remaining activity [%]
"EPHA2 (Homo sapiens, UniProt P29317)",98.3
"TEC (Homo sapiens, UniProt P42680)",96.4
"MAP3K20 (Homo sapiens, UniProt Q9NYL2)",88.5
